Assay results pooled from the literature.
Each line is one published result; not all experiments were run side by side. ± marks the error that the study gave.
cas9: CRISPR-associated endonuclease Cas9/Csn1 (cas9, Streptococcus pyogenes serotype M1, UniProt Q99ZW2)
Chain of UniProt Q99ZW2 (whole entry, looked up): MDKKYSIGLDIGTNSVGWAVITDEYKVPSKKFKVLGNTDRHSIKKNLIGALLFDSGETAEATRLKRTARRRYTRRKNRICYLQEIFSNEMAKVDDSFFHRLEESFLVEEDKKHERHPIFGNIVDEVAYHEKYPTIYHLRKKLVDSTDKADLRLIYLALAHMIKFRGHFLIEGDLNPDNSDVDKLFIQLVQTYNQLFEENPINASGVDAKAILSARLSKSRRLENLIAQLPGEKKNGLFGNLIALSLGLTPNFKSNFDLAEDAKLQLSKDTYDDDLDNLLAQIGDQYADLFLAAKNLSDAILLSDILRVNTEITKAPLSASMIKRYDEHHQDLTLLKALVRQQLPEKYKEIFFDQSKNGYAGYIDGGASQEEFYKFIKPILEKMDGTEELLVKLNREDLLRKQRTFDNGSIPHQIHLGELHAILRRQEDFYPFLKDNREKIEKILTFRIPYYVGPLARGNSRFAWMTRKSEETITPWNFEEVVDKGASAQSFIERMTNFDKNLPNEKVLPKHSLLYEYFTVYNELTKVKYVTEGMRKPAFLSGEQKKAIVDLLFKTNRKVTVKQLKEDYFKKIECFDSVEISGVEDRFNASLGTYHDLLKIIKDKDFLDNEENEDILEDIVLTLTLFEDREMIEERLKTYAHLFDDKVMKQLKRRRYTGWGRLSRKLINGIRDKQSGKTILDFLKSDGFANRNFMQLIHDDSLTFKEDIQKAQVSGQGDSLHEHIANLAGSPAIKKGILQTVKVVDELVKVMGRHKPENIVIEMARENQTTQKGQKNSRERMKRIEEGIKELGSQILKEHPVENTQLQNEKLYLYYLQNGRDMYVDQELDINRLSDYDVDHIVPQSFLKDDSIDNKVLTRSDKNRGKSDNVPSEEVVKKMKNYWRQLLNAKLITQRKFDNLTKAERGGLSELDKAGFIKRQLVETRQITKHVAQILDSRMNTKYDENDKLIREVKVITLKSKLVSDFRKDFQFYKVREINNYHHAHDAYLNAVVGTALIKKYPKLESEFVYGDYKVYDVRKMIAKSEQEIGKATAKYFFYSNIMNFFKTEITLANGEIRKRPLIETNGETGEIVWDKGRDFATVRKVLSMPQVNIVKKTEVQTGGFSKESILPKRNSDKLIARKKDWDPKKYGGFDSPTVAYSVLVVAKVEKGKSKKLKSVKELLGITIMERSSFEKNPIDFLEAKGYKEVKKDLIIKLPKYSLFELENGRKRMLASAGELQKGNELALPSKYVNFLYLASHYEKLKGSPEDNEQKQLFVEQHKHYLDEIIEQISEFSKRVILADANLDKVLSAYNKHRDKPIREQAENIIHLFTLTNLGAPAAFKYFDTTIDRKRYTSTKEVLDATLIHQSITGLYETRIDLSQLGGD
Chain of UniProt Q07812 (whole entry, looked up): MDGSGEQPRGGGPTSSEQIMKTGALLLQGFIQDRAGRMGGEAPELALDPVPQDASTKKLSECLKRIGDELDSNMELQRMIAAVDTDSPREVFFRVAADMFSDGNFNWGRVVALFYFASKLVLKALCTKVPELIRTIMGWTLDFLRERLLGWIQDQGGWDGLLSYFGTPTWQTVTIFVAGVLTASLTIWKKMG
Chain of UniProt P00750 (whole entry, looked up): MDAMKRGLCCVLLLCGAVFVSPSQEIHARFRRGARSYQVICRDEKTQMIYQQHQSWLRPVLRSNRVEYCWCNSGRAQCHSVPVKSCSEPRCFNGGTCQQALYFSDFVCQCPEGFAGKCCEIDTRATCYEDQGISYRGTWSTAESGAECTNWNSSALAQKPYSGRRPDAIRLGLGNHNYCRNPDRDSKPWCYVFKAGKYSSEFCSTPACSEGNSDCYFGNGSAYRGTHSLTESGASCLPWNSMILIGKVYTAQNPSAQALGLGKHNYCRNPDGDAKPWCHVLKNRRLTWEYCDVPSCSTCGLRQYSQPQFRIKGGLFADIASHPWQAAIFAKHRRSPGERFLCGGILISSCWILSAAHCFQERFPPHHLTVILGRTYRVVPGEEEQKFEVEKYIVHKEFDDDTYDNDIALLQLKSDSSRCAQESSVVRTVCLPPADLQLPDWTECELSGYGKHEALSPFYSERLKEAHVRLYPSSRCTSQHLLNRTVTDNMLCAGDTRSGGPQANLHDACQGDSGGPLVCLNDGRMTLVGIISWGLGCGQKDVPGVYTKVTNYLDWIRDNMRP
Chain of UniProt P07384 (whole entry, looked up): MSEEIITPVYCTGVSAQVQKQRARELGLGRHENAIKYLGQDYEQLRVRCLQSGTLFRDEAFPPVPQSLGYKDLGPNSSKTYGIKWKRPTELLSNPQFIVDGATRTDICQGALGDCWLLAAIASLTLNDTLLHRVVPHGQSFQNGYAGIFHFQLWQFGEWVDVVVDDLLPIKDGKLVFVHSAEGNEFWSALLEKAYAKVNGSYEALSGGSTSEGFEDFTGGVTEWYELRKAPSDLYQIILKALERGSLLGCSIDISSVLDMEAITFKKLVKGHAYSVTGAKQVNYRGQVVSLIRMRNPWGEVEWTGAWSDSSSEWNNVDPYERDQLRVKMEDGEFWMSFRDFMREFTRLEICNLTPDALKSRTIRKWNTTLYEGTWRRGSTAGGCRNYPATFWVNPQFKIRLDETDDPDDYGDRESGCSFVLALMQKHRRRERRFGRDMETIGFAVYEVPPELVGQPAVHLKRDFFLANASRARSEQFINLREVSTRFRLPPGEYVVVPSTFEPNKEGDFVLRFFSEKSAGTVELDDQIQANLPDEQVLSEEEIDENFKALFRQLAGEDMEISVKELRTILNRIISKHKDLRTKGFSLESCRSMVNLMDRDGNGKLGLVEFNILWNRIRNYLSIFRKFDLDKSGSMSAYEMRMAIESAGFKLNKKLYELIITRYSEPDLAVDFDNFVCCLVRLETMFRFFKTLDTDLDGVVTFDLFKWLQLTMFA
Chain of UniProt P22303 (whole entry, looked up): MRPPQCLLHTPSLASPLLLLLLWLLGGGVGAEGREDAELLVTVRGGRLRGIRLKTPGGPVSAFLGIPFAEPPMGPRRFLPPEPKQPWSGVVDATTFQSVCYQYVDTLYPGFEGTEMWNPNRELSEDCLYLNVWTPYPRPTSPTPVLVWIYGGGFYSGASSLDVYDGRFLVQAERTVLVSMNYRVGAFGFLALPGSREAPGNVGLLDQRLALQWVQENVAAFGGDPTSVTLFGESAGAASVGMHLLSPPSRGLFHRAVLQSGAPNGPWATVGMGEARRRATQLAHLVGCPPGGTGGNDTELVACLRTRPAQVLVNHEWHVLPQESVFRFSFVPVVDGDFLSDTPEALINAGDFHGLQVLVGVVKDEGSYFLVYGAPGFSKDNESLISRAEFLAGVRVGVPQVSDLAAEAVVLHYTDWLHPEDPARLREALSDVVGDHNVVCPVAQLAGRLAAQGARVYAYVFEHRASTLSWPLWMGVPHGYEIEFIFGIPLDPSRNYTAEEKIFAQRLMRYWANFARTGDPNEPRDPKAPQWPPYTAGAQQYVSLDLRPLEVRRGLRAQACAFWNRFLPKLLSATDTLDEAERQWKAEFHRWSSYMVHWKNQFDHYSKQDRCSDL
Chain of UniProt Q71U36 (whole entry, looked up): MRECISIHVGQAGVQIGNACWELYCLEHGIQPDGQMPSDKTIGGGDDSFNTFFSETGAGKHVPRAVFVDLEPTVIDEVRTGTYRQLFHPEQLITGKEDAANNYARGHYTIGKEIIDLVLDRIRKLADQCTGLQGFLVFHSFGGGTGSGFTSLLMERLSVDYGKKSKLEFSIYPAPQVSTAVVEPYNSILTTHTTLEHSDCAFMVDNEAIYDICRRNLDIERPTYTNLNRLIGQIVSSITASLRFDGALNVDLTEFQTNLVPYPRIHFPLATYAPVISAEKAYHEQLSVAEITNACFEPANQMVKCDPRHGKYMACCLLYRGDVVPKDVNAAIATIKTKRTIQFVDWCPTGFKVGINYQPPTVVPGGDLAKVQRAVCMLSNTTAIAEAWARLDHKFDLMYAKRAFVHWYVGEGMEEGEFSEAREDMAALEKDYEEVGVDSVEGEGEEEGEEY
Chain of UniProt Q9GZZ6 (whole entry, looked up): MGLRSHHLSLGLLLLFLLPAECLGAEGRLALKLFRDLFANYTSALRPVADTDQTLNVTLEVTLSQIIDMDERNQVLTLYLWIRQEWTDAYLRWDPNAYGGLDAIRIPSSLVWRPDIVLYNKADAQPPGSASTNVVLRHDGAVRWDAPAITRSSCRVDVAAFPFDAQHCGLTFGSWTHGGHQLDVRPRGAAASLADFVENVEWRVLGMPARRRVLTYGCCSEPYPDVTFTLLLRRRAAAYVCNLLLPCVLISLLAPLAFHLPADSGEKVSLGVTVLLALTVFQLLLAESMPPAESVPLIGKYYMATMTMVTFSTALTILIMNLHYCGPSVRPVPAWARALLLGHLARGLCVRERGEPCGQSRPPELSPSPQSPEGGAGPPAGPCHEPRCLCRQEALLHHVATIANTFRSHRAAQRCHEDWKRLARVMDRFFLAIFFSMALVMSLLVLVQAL
Chain of UniProt P0A7E5 (whole entry, unmodified, looked up): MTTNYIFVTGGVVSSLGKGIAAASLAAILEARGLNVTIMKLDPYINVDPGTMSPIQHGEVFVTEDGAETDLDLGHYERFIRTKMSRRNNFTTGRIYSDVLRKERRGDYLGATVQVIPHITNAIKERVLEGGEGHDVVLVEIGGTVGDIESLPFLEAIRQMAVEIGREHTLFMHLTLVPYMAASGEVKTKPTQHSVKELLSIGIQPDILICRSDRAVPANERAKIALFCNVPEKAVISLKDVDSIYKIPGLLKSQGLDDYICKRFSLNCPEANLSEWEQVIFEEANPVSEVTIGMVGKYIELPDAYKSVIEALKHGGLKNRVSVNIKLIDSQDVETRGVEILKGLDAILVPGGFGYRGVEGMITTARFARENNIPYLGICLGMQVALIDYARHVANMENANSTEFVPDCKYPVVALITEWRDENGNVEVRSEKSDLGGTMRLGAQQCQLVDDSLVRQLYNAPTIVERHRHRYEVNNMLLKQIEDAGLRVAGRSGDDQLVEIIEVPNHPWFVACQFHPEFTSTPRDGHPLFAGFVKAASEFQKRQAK

| SMILES | target | assay | system | conditions | IC50 [µM] |
| --- | --- | --- | --- | --- | --- |
| CNCCCC12CCC(c3ccccc31)c1ccccc12 | Neuronal acetylcholine receptor; alpha9/alpha10 (Homo sapiens, UniProt Q9GZZ6+Q9UGM1) | inhibitor |  |  | 1.43 ± 0.9 |
| CNC(C)Cc1ccc2nsnc2c1 (centres unmarked) | SLC22A1 (Homo sapiens, UniProt O15245) |  |  |  | 5.4 ± 2.2 |
| CCC(C(=O)Nc1cc(NC2CCNCC2)ccc1C)n1cc(Cl)cc2nc(SCc3ccc(F)cc3)nc1-2 (centres unmarked) | CAPN1 (Homo sapiens, UniProt P07384) | enzyme activity |  |  | > 100 |
| OC(CN1CCNCC1)Cn1c2ccccc2c2ccccc21 (centres unmarked) | BAX (Homo sapiens, UniProt Q07812) | membrane permeabilization, inhibitor, liposome release |  | 400 nM BAX, with: 30 nM tBID | 21 |
| Nc1ccn([C@@H]2O[C@H](COP(=O)(O)OP(=O)(O)OP(=O)(O)O)[C@@H](O)[C@H]2O)c(=O)n1 | pyrG (Escherichia coli, UniProt P0A7E5, C268A) | enzyme activity |  | with: 6.0 mM glutamine, 1.0 mM ATP, 0.05 mM UTP | 131 ± 20 |
| Nc1c2c(nc3c1C(c1cccc(Br)c1)c1ccc(O)cc1O3)CCCC2 (centres unmarked) | ACHE (Homo sapiens, UniProt P22303) | enzyme activity, inhibitor |  |  | 3.49 |
| C[C@H]1CN(c2n[nH]c3nc(N[C@H]4CC[C@H](NS(=O)(=O)CCC(F)(F)F)CC4)ncc23)CCO1 | Tubulin alpha-1A chain (Homo sapiens, UniProt Q71U36) | biochemical |  |  | ≥ 20 |
| N.N.[Cl][Pt][Cl] | cas9 | linear substrate | Streptococcus pyogenes |  | 50 to 100 |
| COc1cc(Nc2ncc(F)c(Nc3ccc4c(n3)NC(=O)C(C)(C)O4)n2)cc(OC)c1OC | PLAT (Homo sapiens, UniProt P00750) | enzyme activity, inhibitor |  |  | > 10 |
| O=C1c2c(O)ccc(O)c2C(=O)c2c(NCCNCCO)ccc(NCCNCCO)c21 | cas9 | circular plasmid substrate | Streptococcus pyogenes |  | 20 to 50 |
| OCc1cc(C(O)CNCCCCCCOCCCCc2ccccc2)ccc1O (centres unmarked) | ADRA2B (Homo sapiens, UniProt P18089) | inhibitor |  |  | 13.3 |
| CN(C)C(=O)C(CCN1CCC(O)(c2ccc(Cl)cc2)CC1)(c1ccccc1)c1ccccc1 | Calcium-activated potassium channel subunit alpha-1, with LRRC26 γ1 subunit (KCNMA1, Homo sapiens, UniProt Q12791) | BK channel conductance, inhibitor, inside-out patch clamp |  | BKα/γ1, Vm -30 mV, nominally Ca2+-free | 28.7 ± 14 |
| CCN1CCN(Cc2ccc(Nc3nc4ccc(Oc5ccnc(NC(C)=O)c5)c(C)c4n3C)cc2C(F)(F)F)CC1 | Protein kinase 6 (Plasmodium falciparum, UniProt Q8IDW1) | enzyme activity, inhibitor |  |  | 0.3 ± 0.1 |
| CC[C@H](C)[C@H](NC(=O)[C@H](CC(C)C)NC(=O)CNC(=O)[C@H](CCCNC(=N)N)NC(=O)[C@H](CC(C)C)NC(=O)[C@@H](NC(=O)[C@H](CCSC)NC(=O)[C@@H]1CCCN1C(=O)CN)C(C)C)C(=O)N[C@H](C(=O)O)[C@@H](C)O | HLA class I histocompatibility antigen, B alpha chain, allele B*18:01 (Homo sapiens, UniProt P01889) | peptide-MHC binding, radioligand competition binding |  |  | > 70 |
